# Measurements collected from several papers.
# Protein sequences, listed by entry. Tags and fused reporters are not part of them. Residues count along the entry.
# UniProt P04757, whole entry, looked up: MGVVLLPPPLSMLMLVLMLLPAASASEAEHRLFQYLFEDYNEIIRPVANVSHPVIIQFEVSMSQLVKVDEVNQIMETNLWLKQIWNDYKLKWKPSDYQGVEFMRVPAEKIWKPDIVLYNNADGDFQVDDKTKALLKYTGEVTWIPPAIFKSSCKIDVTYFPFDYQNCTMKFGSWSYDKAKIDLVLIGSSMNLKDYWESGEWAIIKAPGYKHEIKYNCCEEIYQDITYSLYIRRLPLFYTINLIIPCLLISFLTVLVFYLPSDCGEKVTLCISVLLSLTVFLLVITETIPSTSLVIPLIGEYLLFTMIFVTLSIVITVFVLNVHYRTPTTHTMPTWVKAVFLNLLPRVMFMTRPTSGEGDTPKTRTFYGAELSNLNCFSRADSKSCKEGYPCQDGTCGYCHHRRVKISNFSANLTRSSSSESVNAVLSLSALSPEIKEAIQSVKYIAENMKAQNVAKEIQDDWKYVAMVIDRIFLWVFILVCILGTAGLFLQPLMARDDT
# UniProt P04757, 26-499 limits assumed: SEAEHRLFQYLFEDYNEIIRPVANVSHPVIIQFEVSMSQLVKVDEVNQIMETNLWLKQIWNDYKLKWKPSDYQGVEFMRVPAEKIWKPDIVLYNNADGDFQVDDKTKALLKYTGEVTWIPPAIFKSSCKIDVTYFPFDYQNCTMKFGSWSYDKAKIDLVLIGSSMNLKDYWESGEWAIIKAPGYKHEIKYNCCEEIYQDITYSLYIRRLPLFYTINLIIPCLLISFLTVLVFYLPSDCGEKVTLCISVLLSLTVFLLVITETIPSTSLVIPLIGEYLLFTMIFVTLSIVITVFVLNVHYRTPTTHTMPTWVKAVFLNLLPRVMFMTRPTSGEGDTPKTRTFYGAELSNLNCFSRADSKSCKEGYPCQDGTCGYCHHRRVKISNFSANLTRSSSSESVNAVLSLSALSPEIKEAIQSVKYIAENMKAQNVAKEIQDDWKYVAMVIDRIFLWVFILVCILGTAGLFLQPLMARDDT
# UniProt P12390, whole entry, looked up: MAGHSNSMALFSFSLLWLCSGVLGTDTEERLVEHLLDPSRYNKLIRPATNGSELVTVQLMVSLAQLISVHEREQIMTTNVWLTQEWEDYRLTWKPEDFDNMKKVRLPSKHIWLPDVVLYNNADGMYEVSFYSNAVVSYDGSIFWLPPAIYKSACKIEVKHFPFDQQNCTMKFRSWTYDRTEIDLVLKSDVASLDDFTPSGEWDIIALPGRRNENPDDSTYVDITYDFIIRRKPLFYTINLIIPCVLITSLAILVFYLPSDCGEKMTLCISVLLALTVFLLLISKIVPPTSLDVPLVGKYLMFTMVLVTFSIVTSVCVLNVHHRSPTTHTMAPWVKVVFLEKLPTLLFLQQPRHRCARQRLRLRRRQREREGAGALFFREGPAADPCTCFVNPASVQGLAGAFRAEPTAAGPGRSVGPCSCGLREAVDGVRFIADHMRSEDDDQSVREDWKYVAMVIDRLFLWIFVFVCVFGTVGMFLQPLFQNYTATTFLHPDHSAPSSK
# UniProt P12390, 25-500 limits assumed: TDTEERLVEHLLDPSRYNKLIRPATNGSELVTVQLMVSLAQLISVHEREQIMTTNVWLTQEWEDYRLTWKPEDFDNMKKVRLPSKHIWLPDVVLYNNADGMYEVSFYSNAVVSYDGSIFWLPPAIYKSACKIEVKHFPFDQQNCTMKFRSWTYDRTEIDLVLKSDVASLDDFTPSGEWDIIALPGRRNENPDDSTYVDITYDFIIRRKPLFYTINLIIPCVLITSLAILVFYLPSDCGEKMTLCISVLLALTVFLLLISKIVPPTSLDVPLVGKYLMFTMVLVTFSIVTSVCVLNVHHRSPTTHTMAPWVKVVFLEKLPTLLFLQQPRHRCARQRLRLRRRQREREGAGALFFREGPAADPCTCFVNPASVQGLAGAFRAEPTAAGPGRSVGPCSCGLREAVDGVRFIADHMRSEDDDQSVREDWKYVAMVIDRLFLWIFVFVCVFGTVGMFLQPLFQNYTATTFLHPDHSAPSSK
# UniProt P43143, whole entry M241L/F253L/V303I/V320I/I327V/A333T/K339T, looked up: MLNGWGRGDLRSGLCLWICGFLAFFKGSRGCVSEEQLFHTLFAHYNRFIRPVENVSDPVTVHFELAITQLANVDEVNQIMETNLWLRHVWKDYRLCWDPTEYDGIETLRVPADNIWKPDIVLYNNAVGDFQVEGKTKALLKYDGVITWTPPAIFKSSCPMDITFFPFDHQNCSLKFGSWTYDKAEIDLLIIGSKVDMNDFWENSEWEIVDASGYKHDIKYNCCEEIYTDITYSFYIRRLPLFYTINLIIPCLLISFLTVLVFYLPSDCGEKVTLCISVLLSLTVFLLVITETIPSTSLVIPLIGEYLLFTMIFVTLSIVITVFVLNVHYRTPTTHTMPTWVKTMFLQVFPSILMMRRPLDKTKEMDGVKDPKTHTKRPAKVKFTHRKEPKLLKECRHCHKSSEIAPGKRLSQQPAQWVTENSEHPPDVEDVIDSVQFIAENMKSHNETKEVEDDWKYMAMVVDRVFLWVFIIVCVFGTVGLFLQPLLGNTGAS
# UniProt Q96PH1, 1-719 isoform 4: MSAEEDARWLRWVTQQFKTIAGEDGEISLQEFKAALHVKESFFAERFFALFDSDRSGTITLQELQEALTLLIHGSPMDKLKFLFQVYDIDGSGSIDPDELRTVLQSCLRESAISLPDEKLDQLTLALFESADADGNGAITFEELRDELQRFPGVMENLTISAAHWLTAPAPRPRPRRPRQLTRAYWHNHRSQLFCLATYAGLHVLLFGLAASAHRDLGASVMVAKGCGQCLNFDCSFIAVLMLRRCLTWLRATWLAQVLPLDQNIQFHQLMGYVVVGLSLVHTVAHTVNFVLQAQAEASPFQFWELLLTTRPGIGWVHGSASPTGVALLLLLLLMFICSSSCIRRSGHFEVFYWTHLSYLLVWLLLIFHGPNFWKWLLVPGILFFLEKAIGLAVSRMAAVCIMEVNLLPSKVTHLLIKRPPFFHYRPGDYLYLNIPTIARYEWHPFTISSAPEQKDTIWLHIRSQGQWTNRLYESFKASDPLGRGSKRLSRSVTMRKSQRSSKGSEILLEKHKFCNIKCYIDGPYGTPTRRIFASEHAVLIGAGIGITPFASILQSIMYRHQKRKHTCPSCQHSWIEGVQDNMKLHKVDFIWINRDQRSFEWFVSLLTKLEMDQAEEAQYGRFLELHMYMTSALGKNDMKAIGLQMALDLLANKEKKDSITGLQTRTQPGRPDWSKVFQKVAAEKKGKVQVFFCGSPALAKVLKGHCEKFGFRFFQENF
# UniProt C7C422, 36-270 limits assumed: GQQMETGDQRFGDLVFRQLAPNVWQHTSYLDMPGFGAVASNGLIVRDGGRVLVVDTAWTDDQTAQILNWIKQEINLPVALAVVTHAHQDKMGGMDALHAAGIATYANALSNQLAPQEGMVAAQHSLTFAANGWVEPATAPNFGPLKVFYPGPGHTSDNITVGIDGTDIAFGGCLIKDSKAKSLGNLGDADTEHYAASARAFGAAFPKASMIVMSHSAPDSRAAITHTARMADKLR
# UniProt P05030, whole entry: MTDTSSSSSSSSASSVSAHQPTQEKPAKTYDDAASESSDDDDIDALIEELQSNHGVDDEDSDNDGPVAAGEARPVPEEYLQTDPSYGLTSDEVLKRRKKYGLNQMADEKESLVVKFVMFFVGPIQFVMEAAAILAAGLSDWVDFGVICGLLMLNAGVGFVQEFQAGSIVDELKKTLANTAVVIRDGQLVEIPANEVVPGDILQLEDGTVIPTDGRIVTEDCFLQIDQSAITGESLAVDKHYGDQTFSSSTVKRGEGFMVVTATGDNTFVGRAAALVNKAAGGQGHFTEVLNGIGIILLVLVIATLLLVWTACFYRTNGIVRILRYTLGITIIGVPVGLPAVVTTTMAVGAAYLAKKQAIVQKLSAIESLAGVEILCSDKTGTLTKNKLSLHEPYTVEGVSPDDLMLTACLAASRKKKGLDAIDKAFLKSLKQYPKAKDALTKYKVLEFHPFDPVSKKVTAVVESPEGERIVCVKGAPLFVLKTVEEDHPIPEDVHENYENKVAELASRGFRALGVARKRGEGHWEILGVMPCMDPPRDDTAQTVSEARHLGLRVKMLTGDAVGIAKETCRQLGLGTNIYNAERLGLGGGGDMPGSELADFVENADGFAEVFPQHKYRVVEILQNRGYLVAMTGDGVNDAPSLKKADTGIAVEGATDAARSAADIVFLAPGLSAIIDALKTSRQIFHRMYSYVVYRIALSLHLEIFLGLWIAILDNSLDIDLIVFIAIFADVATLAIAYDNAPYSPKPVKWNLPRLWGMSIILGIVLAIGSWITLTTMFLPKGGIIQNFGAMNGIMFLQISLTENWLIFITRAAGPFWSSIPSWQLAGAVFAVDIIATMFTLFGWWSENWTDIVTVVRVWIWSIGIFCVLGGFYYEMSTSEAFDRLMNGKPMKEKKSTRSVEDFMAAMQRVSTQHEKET
# UniProt Q641Z9, 30-169 limits assumed: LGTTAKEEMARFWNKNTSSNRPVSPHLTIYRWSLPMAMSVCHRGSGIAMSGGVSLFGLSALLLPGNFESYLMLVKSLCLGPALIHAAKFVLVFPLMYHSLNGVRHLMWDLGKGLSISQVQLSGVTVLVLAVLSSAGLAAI
# UniProt P18507, whole entry, looked up: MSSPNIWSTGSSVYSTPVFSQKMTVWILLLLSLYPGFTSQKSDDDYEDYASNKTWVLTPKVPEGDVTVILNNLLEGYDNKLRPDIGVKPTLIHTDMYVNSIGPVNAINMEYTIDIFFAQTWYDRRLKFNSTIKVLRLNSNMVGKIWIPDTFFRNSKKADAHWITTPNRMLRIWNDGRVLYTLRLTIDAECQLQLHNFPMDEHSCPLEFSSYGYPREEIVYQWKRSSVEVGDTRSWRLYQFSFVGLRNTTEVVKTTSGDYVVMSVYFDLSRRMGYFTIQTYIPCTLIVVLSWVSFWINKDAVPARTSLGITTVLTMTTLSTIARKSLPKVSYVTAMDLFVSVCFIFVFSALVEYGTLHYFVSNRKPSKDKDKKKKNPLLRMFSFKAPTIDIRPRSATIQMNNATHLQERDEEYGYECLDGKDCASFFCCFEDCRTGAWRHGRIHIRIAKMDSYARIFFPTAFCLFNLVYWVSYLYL
# UniProt P28472, whole entry, looked up: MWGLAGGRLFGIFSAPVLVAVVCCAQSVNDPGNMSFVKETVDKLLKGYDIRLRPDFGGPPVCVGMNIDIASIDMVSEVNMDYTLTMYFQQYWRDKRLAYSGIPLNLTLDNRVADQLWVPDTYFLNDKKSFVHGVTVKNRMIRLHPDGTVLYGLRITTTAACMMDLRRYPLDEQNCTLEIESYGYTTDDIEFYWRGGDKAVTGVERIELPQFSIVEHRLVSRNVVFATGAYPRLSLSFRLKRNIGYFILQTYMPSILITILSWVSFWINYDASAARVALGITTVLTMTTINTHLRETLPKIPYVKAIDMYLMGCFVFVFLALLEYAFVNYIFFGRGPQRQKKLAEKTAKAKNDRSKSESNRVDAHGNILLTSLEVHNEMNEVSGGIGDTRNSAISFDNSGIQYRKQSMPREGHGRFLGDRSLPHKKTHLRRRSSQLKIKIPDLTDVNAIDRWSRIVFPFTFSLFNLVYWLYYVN
# UniProt Q16445, whole entry, looked up: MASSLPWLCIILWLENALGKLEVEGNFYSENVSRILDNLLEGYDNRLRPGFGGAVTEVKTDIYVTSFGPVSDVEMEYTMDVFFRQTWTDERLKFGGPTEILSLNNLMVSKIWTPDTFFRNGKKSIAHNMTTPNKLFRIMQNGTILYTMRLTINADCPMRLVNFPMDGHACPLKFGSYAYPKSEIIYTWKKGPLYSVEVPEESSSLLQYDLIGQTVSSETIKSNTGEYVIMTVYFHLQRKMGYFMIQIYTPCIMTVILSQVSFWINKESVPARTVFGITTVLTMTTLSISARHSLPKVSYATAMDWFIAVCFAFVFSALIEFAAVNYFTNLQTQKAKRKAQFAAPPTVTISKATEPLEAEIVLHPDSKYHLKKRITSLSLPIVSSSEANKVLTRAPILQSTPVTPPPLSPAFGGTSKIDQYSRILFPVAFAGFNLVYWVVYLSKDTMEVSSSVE
# UniProt P0A9J8, 1-92 limits assumed: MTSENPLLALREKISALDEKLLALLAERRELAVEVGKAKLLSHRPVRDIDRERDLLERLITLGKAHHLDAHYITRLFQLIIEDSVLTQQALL
# UniProt P23977, whole entry: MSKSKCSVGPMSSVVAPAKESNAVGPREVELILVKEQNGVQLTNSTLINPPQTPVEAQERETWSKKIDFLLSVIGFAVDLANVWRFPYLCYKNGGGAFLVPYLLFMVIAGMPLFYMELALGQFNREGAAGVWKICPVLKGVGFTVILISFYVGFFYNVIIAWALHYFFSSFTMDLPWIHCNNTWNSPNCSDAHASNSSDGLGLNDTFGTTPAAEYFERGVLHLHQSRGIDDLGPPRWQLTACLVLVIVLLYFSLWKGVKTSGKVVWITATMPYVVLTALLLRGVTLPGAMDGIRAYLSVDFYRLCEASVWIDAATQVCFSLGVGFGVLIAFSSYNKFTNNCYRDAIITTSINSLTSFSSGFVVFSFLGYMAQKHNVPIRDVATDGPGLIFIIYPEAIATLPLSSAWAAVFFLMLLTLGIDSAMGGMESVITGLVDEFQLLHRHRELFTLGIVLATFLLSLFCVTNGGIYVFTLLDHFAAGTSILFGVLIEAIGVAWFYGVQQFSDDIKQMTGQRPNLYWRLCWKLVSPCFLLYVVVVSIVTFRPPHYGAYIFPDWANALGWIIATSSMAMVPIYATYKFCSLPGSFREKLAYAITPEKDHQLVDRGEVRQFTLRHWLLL
# Lines come from different studies, so protocols differ. ± marks the error that the study gave.
# ache: Acetylcholinesterase (ache, Electrophorus electricus, UniProt O42275)
# Chrna3/Chrnb2/Chrna6 with beta3 subunit: Chrna3/Chrnb2/Chrna6, with beta3 subunit (Rattus norvegicus, UniProt P04757+P12390+P43143)
# Neuronal acetylcholine receptor; alpha3/beta2: Neuronal acetylcholine receptor; alpha3/beta2 (Rattus norvegicus, UniProt P04757+P12390)
# NOX5: NADPH oxidase 5 (NOX5, Homo sapiens, UniProt Q96PH1)
# Salicylate synthetase, Irp9: Salicylate synthetase, Irp9 (Yersinia enterocolitica, UniProt Q9X9I8)
# DUOX1: DUOX1 (Homo sapiens, UniProt Q9NRD9)
SMILES,target,test,test system,setting,scale,measurement,result
CNC(=O)Oc1ccc2c(c1)[C@]1(C)CCN(C)[C@@H]1N2C,"Acetylcholinesterase (Ace, Anopheles gambiae, UniProt Q869C3)","enzyme activity, inhibitor, Ellman",,"10 min, together with: acetylthiocholine",,IC50,8.3 nM
O=C(O)CNCC(=O)O,"Metallo-beta-lactamase type 2 (blaNDM-1, Klebsiella pneumoniae, UniProt C7C422)","enzyme activity, inhibitor",,together with: meropenem substrate,,IC50,122000 nM
CC(C)C[C@@H]1NC(=O)[C@H](CCC(=O)O)NC(=O)[C@@H]2CCCN2C(=O)[C@H](Cc2c[nH]cn2)NC(=O)[C@H](CCCCC(=O)O)NC(=O)[C@H](CC(C)C)NC(=O)[C@H](Cc2c[nH]cn2)NC(=O)[C@@H]2CSSC[C@H](NC(=O)CN)C(=O)N[C@@H](CSSC[C@@H](C(N)=O)NC1=O)C(=O)N[C@@H](CO)C(=O)N[C@@H](Cc1c[nH]cn1)C(=O)N1CCC[C@H]1C(=O)N[C@@H](C)C(=O)N2,"Neuronal acetylcholine receptor subunit alpha-7 (Chrna7, Rattus norvegicus, UniProt Q05941)","ACh-evoked current, antagonist, two-electrode voltage clamp",Xenopus laevis oocytes,together with: ACh 300 µM,,IC50,31.6 nM
Cc1cccc2nc(Sc3ncnc4c3nnn4Cc3ccccc3)oc12,"NADPH oxidase 2 (CYBB, Homo sapiens, UniProt P04839)","enzyme activity, inhibitor, MCLA chemiluminescence",cell-free membranes,,,IC50,> 100000 nM
CC(Cc1ccc(O)cc1)NCC(O)c1cc(O)cc(O)c1 (stereo not shown),"5-hydroxytryptamine receptor 2A (HTR2A, Homo sapiens, UniProt P28223)",binding,,,,IC50,3400 nM
C[Si](C)(C)CCOC(=O)Oc1ccc(COC(=O)Cc2ccccc2Nc2c(Cl)cccc2Cl)cc1,ache,"enzyme activity, inhibitor, Ellman",,,,IC50,1360 ± 130 nM
CC[C@H](C)[C@@H]1NC(=O)[C@H](CCC(=O)O)NC(=O)[C@@H]2CCCN2C(=O)[C@H](Cc2c[nH]cn2)NC(=O)[C@H](CC(N)=O)NC(=O)[C@H](CC(C)C)NC(=O)[C@H](Cc2c[nH]cn2)NC(=O)[C@@H]2CSSC[C@H](NC(=O)CN)C(=O)N[C@@H](CSSC[C@@H](C(N)=O)NC1=O)C(=O)N[C@@H](CO)C(=O)N[C@@H](Cc1c[nH]cn1)C(=O)N1CCC[C@H]1C(=O)N[C@@H](C)C(=O)N2,Chrna3/Chrnb2/Chrna6 with beta3 subunit,"ion current, antagonist, two-electrode voltage clamp",Xenopus laevis oocytes,together with: 100 µM acetylcholine,,IC50,0.86 nM
COc1ccc2nc(Sc3ncnc4c3nnn4Cc3ccccc3)oc2c1,"NADPH oxidase 4 (NOX4, Homo sapiens, UniProt Q9NPH5)","enzyme activity, inhibitor, Amplex Red",cell-free membranes,,,IC50,> 100000 nM
CCN1CCN(Cc2ccc(NC(=O)c3ccc(C)c(/C=C/c4cnc5[nH]ccc5c4OC)c3)cc2C(F)(F)F)CC1,human PRKY,"kinase-CDC37 interaction, inhibitor",human cells,5 µM,relative to: vehicle,log2 fold change,0.599
CC(C)C[C@@H]1NC(=O)[C@H](CCC(=O)O)NC(=O)[C@@H]2CCCN2C(=O)[C@H](Cc2c[nH]cn2)NC(=O)[C@H](CC(=O)O)NC(=O)[C@H](CC(C)C)NC(=O)[C@H](Cc2c[nH]cn2)NC(=O)[C@@H]2CSSC[C@H](NC(=O)CN)C(=O)N[C@@H](CSSC[C@@H](C(N)=O)NC1=O)C(=O)N[C@@H](CO)C(=O)N[C@@H](Cc1c[nH]cn1)C(=O)N1CCC[C@H]1C(=O)N[C@@H](C)C(=O)N2,Neuronal acetylcholine receptor; alpha3/beta2,"ion current, antagonist, two-electrode voltage clamp",Xenopus laevis oocytes,together with: 100 µM acetylcholine,,IC50,1.67 nM
CC(C)c1ccc2nc(Sc3ncnc4c3nnn4Cc3ccccc3)oc2c1,NOX5,"enzyme activity, inhibitor, Amplex Red",cell-free membranes,,,IC50,300 ± 100 nM
CCC(C)C1NC(=O)/C(=C(/C)O)C1=O (stereo not shown),"Plasma membrane ATPase 1 (PMA1, Saccharomyces cerevisiae, UniProt P05030)","ATP hydrolysis, inhibitor",plasma membrane fraction,expressed in Saccharomyces cerevisiae,,IC50,7800 nM
CCCCCCCCCC(=O)c1c(O)nc(OC)c(OC)c1O,"Succinate dehydrogenase complex (complex II) (Rattus norvegicus, UniProt P21913+Q641Z9+Q6PCT8)","enzyme activity, inhibitor",isolated heart mitochondria,together with: succinate and coenzyme Q2 with DCPIP,,IC50,9.9 ± 1.9 nM
O=c1oc2cc(Br)c(O)c(Br)c2s1,"Salicylate synthetase, Irp9","pyruvate production, inhibitor",,"25 °C, together with: chorismate 10 µM",,IC50,160000 ± 10000 nM
Fc1ccc2nc(Sc3ncnc4c3nnn4Cc3ccccc3)oc2c1,NOX5,"enzyme activity, inhibitor, Amplex Red",cell-free membranes,,,IC50,1500 ± 30 nM
O=C(O)c1cccc(S(=O)(=O)Nc2ccccc2C(=O)O)c1,"Salicylate synthetase, Irp9","salicylate production, inhibitor",,"pH 7.5, 25 °C, together with: chorismate 2 µM",,IC50,> 160000 nM
Brc1ccc2nc(Sc3ncnc4c3nnn4Cc3ccccc3)oc2c1,DUOX1,"enzyme activity, inhibitor, Amplex Red",cell-free membranes,,,IC50,> 15000 nM
CC(C)C[C@@H]1NC(=O)[C@H](CCC(=O)O)NC(=O)[C@@H]2CCCN2C(=O)[C@H](Cc2c[nH]cn2)NC(=O)[C@H](CCC(=O)O)NC(=O)[C@H](CC(C)C)NC(=O)[C@H](Cc2c[nH]cn2)NC(=O)[C@@H]2CSSC[C@H](NC(=O)CN)C(=O)N[C@@H](CSSC[C@@H](C(N)=O)NC1=O)C(=O)N[C@@H](CO)C(=O)N[C@@H](Cc1c[nH]cn1)C(=O)N1CCC[C@H]1C(=O)N[C@@H](C)C(=O)N2,Chrna3/Chrnb2/Chrna6 with beta3 subunit,"ion current, antagonist, two-electrode voltage clamp",Xenopus laevis oocytes,together with: 100 µM acetylcholine,,IC50,16.2 nM
c1ccc(Cn2nnc3c(Sc4nc5ncccc5o4)ncnc32)cc1,NOX5,"enzyme activity, inhibitor, Amplex Red",cell-free membranes,,,IC50,3600 ± 300 nM
CC1(C)N=C(c2cnc3ccccc3c2)c2ccccc2C1(F)F,"Dihydroorotate dehydrogenase (quinone) (Pyricularia oryzae, UniProt G4NFI3, M402V)",enzyme activity,,"20 to 30 min, 30 °C",,IC50,2.8 nM
COc1ccc2cc([C@H](C)C(=O)OCc3ccc(OC(=O)OCCC(C)(C)C)cc3)ccc2c1,ache,"enzyme activity, inhibitor, Ellman",,,,IC50,1740 ± 1010 nM
Cc1cccc2oc(Sc3ncnc4c3nnn4Cc3ccccc3)nc12,NOX5,"enzyme activity, inhibitor, Amplex Red",cell-free membranes,,,IC50,1200 ± 100 nM
C=C(C)[C@@H]1[C@H]2OC(=O)[C@@H]1[C@]1(O)C[C@H]3O[C@]34C(=O)O[C@H]2[C@]14C,"GABA-A receptor; alpha-6/beta-3/gamma-2 (Homo sapiens, UniProt P18507+P28472+Q16445)","chloride current, inhibitor, whole-cell voltage clamp",L929,"3 min preincubation, together with: GABA at EC90",,IC50,5800 nM
CC[C@H](C)[C@H](NC(=O)[C@@H](NC(=O)[C@H](CC(=O)O)NC(=O)[C@H](CC(C)C)NC(=O)[C@H](CC(C)C)NC(=O)[C@H](CC(C)C)NC(=O)[C@H](CCCNC(=N)N)NC(=O)[C@H](CC(N)=O)NC(=O)[C@H](CC(N)=O)NC(=O)[C@H](C)NC(=O)[C@H](C)NC(=O)[C@H](CCC(N)=O)NC(=O)[C@H](CCC(N)=O)NC(=O)[C@H](CCCCN)NC(=O)[C@H](CCC(=O)O)NC(=O)[C@H](CCCCN)NC(=O)[C@H](CCC(=O)O)NC(=O)[C@H](CCC(N)=O)NC(=O)[C@H](CCCCN)NC(=O)[C@H](CCC(=O)O)NC(=O)[C@@H](NC(=O)[C@H](CCC(=O)O)NC(=O)[C@@H](NC(=O)[C@H](CCSC)NC(=O)[C@H](CCCCN)NC(=O)[C@H](CCCNC(=N)N)NC(=O)[C@H](CC(C)C)NC(=O)[C@H](CC(C)C)NC(=O)[C@H](Cc1c[nH]cn1)NC(=O)[C@H](N)Cc1ccccc1)[C@@H](C)CC)[C@@H](C)CC)[C@@H](C)O)C(N)=O,"Corticotropin-releasing factor receptor 2/Corticotropin-releasing factor-binding protein, part alpha isoform (Homo sapiens, UniProt P24387+Q13324)","intracellular Ca2+ release, antagonist",,together with: CRF 3 µM,,IC50,27 ± 1 nM
O=[N+]([O-])c1cc(S(=O)(=O)c2cc([N+](=O)[O-])c(O)c([N+](=O)[O-])c2)cc([N+](=O)[O-])c1O,"Bifunctional chorismate mutase/prephenate dehydratase, chorismate mutase domain (pheA, Escherichia coli, UniProt P0A9J8)","chorismate consumption, inhibitor",,"37 °C, together with: chorismate 600 µM",,IC50,82000 ± 2000 nM
CC(C)C[C@@H]1NC(=O)[C@H](CCC(=O)O)NC(=O)[C@@H]2CCCN2C(=O)[C@H](Cc2c[nH]cn2)NC(=O)[C@H](CC(N)=O)NC(=O)[C@H](CC(C)C)NC(=O)[C@H](Cc2c[nH]cn2)NC(=O)[C@@H]2CSSC[C@H](NC(=O)CN)C(=O)N[C@@H](CSSC[C@@H](C(N)=O)NC1=O)C(=O)N[C@@H](CO)C(=O)N[C@@H](Cc1c[nH]cn1)C(=O)N1CCC[C@H]1C(=O)N[C@@H](C)C(=O)N2,Neuronal acetylcholine receptor; alpha3/beta2,"ion current, antagonist, two-electrode voltage clamp",Xenopus laevis oocytes,together with: 100 µM acetylcholine,,IC50,0.29 nM
C[C@H]1[C@H](F)C[C@@H](C(=O)NCc2cc(-c3cnc(C(F)(F)F)nc3)ncc2C(F)(F)F)N1S(=O)(=O)c1ccc(F)cc1,"Transient receptor potential cation channel subfamily A member 1 (Trpa1, Mus musculus, UniProt Q8BLA8)","calcium influx, antagonist, FlexStation calcium",HEK-293T transfected,together with: CS gas at EC50,,IC50,70 nM
CC(C)C[C@@H]1NC(=O)[C@H](CCC(=O)O)NC(=O)[C@@H]2CCCN2C(=O)[C@H](Cc2c[nH]cn2)NC(=O)[C@H](CC(N)=O)NC(=O)[C@H]([C@@H](C)O)NC(=O)[C@H](CO)NC(=O)[C@@H]2CSSC[C@H](NC(=O)CN)C(=O)N[C@@H](CSSC[C@@H](C(N)=O)NC1=O)C(=O)N[C@@H](CO)C(=O)N[C@@H](Cc1c[nH]cn1)C(=O)N1CCC[C@H]1C(=O)N[C@@H](C)C(=O)N2,Chrna3/Chrnb2/Chrna6 with beta3 subunit,"ion current, antagonist, two-electrode voltage clamp",Xenopus laevis oocytes,together with: 100 µM acetylcholine,,IC50,29 nM
Clc1ccc2nc(Sc3ncnc4c3nnn4Cc3ccccc3)oc2c1,DUOX1,"enzyme activity, inhibitor, Amplex Red",cell-free membranes,,,IC50,> 15000 nM
CCC(N)Cc1c[nH]c2ccc(Cl)cc12 (stereo not shown),"Sodium-dependent dopamine transporter (Slc6a3, Rattus norvegicus, UniProt P23977)","dopamine uptake, inhibitor",rat brain synaptosomes,,,IC50,1840 ± 150 nM
CC(C)C[C@@H]1NC(=O)[C@H](CC(=O)O)NC(=O)[C@@H]2CCCN2C(=O)[C@H](Cc2c[nH]cn2)NC(=O)[C@H](CC(N)=O)NC(=O)[C@H](C(C)C)NC(=O)[C@H](CO)NC(=O)[C@@H]2CSSC[C@H](NC(=O)CN)C(=O)N[C@@H](CSSC[C@@H](C(N)=O)NC1=O)C(=O)N[C@@H](CO)C(=O)N[C@@H](Cc1c[nH]cn1)C(=O)N1CCC[C@H]1C(=O)N[C@@H](C)C(=O)N2,Chrna3/Chrnb2/Chrna6 with beta3 subunit,"ion current, antagonist, two-electrode voltage clamp",Xenopus laevis oocytes,together with: 100 µM acetylcholine,,IC50,21 nM

# A few entries again:
SMILES,target,test,test system,setting,scale,measurement,result
CC1(C)N=C(c2cnc3ccccc3c2)c2ccccc2C1(F)F,"Dihydroorotate dehydrogenase (quinone) (Pyricularia oryzae, UniProt G4NFI3, M402V)",enzyme activity,,"20 to 30 min, 30 °C",,IC50,2.8 nM
COc1ccc2cc([C@H](C)C(=O)OCc3ccc(OC(=O)OCCC(C)(C)C)cc3)ccc2c1,ache,"enzyme activity, inhibitor, Ellman",,,,IC50,1740 ± 1010 nM
Cc1cccc2oc(Sc3ncnc4c3nnn4Cc3ccccc3)nc12,NOX5,"enzyme activity, inhibitor, Amplex Red",cell-free membranes,,,IC50,1200 ± 100 nM
